# Published values pooled from the literature.
# Every numbered part comes from another study and shows a few of its results, in no order. “And” joins repeats or separate records; there may be more than shown.
# Sequence of UniProt Q8N4C8 (whole entry, looked up): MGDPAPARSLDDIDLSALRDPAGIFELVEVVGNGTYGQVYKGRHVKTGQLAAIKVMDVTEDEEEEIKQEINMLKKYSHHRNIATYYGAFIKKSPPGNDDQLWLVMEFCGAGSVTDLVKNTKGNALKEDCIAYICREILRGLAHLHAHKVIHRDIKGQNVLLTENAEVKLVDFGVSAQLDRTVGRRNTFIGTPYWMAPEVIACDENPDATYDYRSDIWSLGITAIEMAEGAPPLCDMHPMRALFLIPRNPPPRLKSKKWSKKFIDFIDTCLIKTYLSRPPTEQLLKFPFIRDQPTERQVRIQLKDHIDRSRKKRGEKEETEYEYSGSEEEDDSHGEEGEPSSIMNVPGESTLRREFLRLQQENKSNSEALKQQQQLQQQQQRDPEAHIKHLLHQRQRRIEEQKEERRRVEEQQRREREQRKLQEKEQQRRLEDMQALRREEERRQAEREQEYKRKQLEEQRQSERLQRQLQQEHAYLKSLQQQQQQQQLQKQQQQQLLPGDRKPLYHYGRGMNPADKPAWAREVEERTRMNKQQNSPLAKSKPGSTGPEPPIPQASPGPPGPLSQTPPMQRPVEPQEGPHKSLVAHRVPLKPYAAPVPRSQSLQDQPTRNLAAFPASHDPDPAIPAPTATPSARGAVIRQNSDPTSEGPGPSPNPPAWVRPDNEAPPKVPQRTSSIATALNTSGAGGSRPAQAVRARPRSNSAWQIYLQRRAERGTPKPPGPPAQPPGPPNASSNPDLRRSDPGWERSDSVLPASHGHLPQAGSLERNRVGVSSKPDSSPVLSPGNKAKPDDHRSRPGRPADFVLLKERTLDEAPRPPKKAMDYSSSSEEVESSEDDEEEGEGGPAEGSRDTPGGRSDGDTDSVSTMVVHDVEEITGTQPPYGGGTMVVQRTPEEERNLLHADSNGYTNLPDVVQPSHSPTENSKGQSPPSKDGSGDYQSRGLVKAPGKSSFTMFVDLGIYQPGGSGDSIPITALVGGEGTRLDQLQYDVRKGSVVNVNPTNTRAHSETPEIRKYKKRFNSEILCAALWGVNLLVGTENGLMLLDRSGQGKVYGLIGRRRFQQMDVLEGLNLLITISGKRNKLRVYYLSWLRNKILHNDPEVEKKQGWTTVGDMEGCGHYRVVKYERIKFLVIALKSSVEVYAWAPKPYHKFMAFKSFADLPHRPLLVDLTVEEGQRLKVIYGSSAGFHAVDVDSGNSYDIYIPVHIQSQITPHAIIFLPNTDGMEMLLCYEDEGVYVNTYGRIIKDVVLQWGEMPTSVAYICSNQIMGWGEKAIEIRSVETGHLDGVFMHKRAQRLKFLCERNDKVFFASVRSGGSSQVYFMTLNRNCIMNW
# Sequence of UniProt O75116 (whole entry, looked up): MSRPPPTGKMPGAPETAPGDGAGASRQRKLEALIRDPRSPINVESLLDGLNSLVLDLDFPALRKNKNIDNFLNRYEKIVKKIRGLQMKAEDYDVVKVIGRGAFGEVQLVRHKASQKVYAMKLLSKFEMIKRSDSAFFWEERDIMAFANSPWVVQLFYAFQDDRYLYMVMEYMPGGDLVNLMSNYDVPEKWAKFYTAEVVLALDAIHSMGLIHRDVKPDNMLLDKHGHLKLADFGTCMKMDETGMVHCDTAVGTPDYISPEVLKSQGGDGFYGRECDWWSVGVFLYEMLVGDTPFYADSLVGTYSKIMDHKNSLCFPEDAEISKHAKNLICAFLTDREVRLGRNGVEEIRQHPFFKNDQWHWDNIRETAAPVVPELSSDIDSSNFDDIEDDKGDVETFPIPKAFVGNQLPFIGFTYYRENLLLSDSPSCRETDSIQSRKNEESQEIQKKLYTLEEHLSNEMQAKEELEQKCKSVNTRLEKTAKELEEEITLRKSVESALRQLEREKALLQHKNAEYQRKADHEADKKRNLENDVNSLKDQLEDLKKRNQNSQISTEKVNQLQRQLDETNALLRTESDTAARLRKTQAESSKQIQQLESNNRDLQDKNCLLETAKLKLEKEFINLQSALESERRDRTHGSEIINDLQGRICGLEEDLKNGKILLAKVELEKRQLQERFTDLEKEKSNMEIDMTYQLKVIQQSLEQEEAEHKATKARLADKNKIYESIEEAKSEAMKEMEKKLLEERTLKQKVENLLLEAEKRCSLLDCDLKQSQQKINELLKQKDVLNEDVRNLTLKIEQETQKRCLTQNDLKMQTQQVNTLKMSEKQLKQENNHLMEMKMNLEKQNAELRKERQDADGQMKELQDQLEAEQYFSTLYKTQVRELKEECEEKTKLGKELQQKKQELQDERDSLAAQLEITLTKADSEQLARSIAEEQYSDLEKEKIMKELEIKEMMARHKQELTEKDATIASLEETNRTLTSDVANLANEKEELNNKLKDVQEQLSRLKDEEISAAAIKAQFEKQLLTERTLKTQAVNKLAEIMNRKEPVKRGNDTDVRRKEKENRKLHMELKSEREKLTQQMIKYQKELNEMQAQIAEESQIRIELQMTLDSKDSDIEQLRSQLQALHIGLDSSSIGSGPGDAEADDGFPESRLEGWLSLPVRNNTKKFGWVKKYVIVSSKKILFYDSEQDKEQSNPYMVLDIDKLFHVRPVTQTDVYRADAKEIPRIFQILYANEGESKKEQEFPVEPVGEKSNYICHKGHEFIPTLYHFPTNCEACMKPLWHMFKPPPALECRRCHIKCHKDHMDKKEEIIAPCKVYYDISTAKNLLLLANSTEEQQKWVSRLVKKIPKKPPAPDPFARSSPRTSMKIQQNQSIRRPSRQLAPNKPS
# Sequence of UniProt Q16539 (whole entry, looked up): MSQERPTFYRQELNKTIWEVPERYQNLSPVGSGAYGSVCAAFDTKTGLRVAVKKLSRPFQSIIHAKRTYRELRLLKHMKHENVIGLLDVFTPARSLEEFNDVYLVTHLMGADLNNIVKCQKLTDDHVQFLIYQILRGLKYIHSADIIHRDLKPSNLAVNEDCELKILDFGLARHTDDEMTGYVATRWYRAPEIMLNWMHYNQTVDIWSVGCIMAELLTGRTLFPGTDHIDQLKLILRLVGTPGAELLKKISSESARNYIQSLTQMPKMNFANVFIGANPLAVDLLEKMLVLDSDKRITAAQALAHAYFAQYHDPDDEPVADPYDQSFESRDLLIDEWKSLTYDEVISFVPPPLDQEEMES

# Set 1
# Target: Activin receptor type-1-like (ACVRL1, Homo sapiens, UniProt P37023)
# Sequence of UniProt P37023 (whole entry, looked up): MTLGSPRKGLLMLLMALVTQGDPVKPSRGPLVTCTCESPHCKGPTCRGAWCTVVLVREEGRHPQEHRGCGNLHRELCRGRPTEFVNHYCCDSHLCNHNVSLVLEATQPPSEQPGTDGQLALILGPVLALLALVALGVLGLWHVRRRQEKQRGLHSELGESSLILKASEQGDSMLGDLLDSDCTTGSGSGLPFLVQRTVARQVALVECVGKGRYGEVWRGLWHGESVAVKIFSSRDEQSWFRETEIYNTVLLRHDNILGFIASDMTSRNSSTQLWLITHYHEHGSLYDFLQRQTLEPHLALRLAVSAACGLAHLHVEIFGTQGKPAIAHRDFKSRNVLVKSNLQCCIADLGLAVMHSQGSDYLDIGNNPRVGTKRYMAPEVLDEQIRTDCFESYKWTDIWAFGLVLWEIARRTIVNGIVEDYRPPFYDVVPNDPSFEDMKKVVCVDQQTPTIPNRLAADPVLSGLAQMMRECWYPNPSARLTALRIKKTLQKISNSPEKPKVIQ
# Read-out: binding
# Technique: TR-FRET
SMILES,Kd [nM]
CNC(=O)[C@@H]1CC[C@@H](n2c(-c3cc(OC)c(OC)c(OC)c3)nc3ccc(C(=O)NCCCN4CCN(c5ccccc5)CC4)cc32)C1,3.2
COc1cc(-c2nc3ccc(C(=O)NCCCN4CCN(c5ccccc5)CC4)cc3[nH]2)cc(OC)c1OC,343
CNC(=O)[C@H]1CC[C@H](n2c(-c3cc(I)c(OC)c(OC)c3)nc3ccc(C(=O)NCCCN4CCN(c5ccccc5)CC4)cc32)C1,5.4
CNC(=O)[C@H]1C[C@H](n2c(-c3cc(OC)c(OC)c(OC)c3)nc3ccc(C(=O)NCCCN4CCN(c5cccc(C)c5C)CC4)cc32)C1,3.28

# Set 2
# SMILES: C[C@@H]1CN(c2ccc(-c3cc(C(=O)NCCOCCOCCOCCOCCNC(=O)Cn4cc(-c5[nH]cc(C(=O)N[C@@H](CC(N)=O)c6ccc(F)c(Cl)c6)c5-c5ccc(Cl)cc5F)cn4)ccc3F)cc2NC(=O)c2c[nH]c(=O)cc2C(F)(F)F)C[C@H](C)N1C
# Read-out: thermal unfolding
# Technique: differential scanning fluorimetry
# Tested at: 5.5 µM
# Reading: higher = more unfolded
# DCAF1: DDB1- and CUL4-associated factor 1 (DCAF1, Homo sapiens, UniProt Q9Y4B6)
# Sequence of UniProt Q9Y4B6 (whole entry, looked up): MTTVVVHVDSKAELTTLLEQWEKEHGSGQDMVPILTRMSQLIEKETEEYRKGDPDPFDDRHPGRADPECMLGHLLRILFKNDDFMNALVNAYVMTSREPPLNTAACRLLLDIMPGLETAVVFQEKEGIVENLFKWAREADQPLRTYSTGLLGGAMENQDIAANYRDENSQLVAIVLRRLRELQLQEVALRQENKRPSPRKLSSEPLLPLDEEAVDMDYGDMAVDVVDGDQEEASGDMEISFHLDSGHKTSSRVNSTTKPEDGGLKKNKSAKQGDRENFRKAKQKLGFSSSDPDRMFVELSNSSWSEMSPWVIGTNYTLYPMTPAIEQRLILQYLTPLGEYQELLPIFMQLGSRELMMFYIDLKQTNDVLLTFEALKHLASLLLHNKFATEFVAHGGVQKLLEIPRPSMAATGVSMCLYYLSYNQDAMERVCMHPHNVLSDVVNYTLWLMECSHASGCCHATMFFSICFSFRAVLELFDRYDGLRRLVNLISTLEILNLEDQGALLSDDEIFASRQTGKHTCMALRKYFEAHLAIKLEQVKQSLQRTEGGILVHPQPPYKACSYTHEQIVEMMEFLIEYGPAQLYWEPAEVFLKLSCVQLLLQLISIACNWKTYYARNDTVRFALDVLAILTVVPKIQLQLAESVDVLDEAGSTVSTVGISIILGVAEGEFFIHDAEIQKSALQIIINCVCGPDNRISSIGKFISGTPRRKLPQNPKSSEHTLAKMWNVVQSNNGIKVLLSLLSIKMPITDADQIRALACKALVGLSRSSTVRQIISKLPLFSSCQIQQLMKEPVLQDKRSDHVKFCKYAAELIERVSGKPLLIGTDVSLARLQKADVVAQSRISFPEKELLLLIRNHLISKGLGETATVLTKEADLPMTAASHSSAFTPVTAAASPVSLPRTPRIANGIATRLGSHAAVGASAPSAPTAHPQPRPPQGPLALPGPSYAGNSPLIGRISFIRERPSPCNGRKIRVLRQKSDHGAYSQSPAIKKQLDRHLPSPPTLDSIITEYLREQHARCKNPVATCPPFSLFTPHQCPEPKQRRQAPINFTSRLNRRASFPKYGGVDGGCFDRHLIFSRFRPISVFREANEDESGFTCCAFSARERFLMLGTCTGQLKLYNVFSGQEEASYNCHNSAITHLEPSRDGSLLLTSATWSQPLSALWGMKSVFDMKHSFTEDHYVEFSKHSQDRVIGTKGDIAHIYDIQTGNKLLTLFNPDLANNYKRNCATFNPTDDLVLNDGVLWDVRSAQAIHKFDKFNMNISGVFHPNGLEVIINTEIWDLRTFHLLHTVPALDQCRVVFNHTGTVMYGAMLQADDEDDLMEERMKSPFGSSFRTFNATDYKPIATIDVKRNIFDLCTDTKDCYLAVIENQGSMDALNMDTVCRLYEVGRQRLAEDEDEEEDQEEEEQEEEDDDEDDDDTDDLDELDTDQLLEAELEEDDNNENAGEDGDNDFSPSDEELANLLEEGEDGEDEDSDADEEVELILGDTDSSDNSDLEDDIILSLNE
# WDR5: WD repeat-containing protein 5 (WDR5, Homo sapiens, UniProt P61964)
target,setting,SYPRO Orange fluorescence
DCAF1,77.61 °C,46400 a.u.
WDR5,75.01 °C,11100 a.u.
DCAF1,75.01 °C,49200 a.u.
DCAF1,49 °C,13900 a.u.
DCAF1,53.01 °C,16600 a.u.
WDR5,31.6 °C,14700 a.u.
WDR5,38.8 °C,14400 a.u.

# Set 3
# SMILES: Cc1ccc(O)c(C)c1-c1cnc2[nH]c(-c3ccc(N4CCN(C)CC4)nc3C)nc2c1
# Target: Membrane-associated tyrosine- and threonine-specific cdc2-inhibitory kinase (PKMYT1, Homo sapiens, UniProt Q99640)
# Construct (Q99640 1-499): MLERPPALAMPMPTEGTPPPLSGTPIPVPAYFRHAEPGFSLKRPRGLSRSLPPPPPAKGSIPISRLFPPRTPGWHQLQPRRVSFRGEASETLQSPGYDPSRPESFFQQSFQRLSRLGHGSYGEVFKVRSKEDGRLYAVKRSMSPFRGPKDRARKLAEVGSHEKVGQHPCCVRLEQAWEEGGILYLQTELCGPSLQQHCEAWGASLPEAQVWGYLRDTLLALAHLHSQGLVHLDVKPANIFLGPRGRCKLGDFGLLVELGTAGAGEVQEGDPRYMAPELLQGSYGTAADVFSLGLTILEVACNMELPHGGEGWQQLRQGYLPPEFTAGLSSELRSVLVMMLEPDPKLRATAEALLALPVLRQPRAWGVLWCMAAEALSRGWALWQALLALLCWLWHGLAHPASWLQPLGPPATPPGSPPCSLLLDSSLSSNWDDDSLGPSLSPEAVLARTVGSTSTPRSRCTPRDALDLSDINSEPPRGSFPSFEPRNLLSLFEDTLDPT
assay,setting,inhibition
,0.00051 µM,-13.6%
"cell-free assay, TR-FRET",0.1235 µM,20.1%
"cell-free assay, TR-FRET",1.111 µM,80.4%
,0.00457 µM,-14% and -15.5%
,10 µM,96.3%
,1.111 µM,85.5%
,0.01372 µM,-10.8% and -9.8%
,0.1235 µM,25.8%
"cell-free assay, TR-FRET",3.333 µM,92.4%

# Set 4
# SMILES: CNc1ncc2cc(-c3cc(OC)cc(OC)c3Cl)c(=O)n(CCc3ccc(NC(=O)C(C#N)=CC(C)(C)N4CCOCC4)cc3)c2n1
target,assay,setting,inhibition
"Mitogen-activated protein kinase 14 (MAPK14, Homo sapiens, UniProt Q16539)",kinase activity,0.1 µM,-2%
"Cyclin-dependent kinase 5, with p25 (CDK5, Homo sapiens, UniProt Q00535)",kinase activity,1 µM,0%
"Dual specificity protein kinase CLK3 (CLK3, Homo sapiens, UniProt P49761)",kinase activity,1 µM,0%
"Ribosomal protein S6 kinase alpha-3 (RPS6KA3, Homo sapiens, UniProt P51812)",kinase activity,0.1 µM,0%
CK1,,"0.1 µM, mean",0%
"Activated CDC42 kinase 1 (TNK2, Homo sapiens, UniProt Q07912)",kinase activity,1 µM,1%
"Ephrin type-A receptor 5 (EPHA5, Homo sapiens, UniProt P54756)",kinase activity,1 µM,14%
"Ribosomal protein S6 kinase beta-2 (RPS6KB2, Homo sapiens, UniProt Q9UBS0)",kinase activity,1 µM,1%
"Rho-associated protein kinase 2 (ROCK2, Homo sapiens, UniProt O75116)",kinase activity,0.1 µM,-9%
"Misshapen-like kinase 1 (MINK1, Homo sapiens, UniProt Q8N4C8)",kinase activity,1 µM,-3%
"Serine/threonine-protein kinase MRCK beta (CDC42BPB, Homo sapiens, UniProt Q9Y5S2)",kinase activity,0.1 µM,-1%
"Mitogen-activated protein kinase kinase kinase kinase 5 (MAP4K5, Homo sapiens, UniProt Q9Y4K4)",kinase activity,1 µM,-2%

# Repeated from above (set 3):
assay,setting,inhibition
"cell-free assay, TR-FRET",3.333 µM,92.4%
"cell-free assay, TR-FRET",1.111 µM,80.4%
,0.00457 µM,-14% and -15.5%
